Assay results of several laboratories.
Protocols differ between the studies behind these lines. ± marks the error that the study gave.
ABCB1: ATP-dependent translocase ABCB1 (ABCB1, Homo sapiens, UniProt P08183)
Chain of UniProt P08183 (whole entry, looked up): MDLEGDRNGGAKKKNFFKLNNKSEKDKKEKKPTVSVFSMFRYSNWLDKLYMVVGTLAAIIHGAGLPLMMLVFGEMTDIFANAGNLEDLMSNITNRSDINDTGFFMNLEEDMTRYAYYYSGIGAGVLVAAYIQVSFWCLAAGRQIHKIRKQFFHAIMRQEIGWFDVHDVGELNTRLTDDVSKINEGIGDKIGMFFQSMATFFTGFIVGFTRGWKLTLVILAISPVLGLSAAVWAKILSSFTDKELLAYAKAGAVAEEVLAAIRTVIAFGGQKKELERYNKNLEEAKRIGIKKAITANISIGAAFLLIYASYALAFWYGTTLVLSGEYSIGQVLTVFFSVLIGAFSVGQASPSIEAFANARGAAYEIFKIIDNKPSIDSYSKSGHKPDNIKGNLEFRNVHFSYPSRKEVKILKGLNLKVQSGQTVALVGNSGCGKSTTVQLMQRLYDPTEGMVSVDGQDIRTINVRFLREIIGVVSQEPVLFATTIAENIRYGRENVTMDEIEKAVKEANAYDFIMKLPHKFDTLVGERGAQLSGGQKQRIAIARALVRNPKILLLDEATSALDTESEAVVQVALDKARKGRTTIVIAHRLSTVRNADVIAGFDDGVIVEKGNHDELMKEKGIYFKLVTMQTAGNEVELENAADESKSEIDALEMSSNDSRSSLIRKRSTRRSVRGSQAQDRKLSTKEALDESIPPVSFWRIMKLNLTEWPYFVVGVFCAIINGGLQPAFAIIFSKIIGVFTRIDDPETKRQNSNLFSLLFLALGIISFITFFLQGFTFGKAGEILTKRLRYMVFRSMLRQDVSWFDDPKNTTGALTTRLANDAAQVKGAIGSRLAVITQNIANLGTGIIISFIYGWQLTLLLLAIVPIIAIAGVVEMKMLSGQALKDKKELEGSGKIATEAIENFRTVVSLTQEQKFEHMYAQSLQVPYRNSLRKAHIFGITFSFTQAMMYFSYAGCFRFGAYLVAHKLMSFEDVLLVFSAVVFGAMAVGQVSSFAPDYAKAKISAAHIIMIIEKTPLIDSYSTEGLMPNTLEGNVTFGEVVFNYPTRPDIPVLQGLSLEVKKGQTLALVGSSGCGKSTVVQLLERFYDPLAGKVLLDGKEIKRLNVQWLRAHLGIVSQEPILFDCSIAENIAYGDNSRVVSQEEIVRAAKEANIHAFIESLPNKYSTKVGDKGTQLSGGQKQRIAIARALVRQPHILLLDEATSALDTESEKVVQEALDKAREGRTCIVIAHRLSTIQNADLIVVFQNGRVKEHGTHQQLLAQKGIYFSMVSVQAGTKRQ
CYP2C9: Cytochrome P450 2C9 (CYP2C9, Homo sapiens, UniProt P11712)
Chain of UniProt P11712 (whole entry, looked up): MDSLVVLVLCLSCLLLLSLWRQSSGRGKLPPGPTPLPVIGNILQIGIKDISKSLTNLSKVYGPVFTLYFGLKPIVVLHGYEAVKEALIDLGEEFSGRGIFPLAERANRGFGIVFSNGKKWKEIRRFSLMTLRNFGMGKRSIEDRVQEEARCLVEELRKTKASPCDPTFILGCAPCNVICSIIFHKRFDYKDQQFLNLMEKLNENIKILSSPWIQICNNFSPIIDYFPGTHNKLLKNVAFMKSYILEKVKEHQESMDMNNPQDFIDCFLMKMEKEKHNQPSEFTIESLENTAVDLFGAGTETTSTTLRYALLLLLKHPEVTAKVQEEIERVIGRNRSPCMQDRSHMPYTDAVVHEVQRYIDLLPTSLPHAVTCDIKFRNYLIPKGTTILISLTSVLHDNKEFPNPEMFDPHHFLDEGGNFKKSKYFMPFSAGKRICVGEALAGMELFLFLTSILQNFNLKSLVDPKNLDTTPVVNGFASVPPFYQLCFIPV
Chain of UniProt P11509 (whole entry, looked up): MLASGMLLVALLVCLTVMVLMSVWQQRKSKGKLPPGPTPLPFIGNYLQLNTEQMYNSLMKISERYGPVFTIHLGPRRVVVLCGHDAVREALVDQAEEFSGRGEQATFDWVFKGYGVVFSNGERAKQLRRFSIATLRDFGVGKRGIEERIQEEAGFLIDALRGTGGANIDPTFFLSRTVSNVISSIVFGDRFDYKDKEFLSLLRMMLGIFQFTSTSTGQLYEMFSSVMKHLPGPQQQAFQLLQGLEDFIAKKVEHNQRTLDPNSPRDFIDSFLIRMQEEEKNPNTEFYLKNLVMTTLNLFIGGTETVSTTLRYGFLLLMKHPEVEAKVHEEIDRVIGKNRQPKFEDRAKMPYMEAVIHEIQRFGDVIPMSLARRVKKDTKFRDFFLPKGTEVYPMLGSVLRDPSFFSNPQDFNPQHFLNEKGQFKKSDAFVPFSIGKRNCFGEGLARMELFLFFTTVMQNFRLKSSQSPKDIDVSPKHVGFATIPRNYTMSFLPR
Chain of UniProt Q16696 (whole entry, looked up): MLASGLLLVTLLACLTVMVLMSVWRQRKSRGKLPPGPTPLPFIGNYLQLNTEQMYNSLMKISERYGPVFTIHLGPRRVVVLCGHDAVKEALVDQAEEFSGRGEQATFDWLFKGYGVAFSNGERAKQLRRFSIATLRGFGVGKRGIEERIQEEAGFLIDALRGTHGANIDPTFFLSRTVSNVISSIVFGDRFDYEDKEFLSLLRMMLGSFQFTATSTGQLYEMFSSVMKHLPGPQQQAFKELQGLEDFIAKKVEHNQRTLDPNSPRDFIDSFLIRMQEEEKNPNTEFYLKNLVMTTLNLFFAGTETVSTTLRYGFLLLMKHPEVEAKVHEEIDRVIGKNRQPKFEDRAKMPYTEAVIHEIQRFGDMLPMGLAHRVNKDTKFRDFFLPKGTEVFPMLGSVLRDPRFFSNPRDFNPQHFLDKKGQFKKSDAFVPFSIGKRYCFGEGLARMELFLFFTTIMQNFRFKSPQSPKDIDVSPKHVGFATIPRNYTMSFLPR
Chain of UniProt P07288 (whole entry, looked up): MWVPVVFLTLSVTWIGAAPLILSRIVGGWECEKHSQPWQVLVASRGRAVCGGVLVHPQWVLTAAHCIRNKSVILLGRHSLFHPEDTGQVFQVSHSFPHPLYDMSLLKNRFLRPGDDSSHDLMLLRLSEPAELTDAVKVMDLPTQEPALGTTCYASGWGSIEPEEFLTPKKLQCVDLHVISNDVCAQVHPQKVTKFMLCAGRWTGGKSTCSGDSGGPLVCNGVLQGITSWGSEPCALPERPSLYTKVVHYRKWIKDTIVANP
Chain of UniProt O75469 (whole entry, looked up): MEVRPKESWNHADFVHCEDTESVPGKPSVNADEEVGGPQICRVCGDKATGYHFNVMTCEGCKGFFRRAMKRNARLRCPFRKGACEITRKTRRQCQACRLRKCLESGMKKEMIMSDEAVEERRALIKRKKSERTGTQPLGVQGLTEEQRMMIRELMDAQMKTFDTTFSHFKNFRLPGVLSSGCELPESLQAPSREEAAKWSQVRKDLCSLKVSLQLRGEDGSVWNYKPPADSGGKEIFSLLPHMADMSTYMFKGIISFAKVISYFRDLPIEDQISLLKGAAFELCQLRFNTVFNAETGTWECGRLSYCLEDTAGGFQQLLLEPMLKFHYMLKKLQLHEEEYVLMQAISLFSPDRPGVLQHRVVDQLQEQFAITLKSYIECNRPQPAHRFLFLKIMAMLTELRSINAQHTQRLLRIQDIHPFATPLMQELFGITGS
Chain of UniProt Q05421 (whole entry, looked up): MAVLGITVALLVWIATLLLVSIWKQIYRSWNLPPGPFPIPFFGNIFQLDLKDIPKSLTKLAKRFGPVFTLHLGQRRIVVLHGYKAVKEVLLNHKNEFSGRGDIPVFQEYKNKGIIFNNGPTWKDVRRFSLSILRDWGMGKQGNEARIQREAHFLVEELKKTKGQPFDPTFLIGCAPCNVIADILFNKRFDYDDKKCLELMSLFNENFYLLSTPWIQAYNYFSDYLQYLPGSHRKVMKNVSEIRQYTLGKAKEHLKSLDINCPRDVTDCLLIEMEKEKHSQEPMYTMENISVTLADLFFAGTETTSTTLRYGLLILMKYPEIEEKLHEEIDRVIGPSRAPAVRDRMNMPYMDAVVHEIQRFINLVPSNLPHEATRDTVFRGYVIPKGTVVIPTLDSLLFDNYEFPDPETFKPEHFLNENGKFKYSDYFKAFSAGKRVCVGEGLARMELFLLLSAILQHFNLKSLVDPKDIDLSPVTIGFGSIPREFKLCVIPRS

| Molecule | target or system | assay | test system | setting | how to read | endpoint | value |
| --- | --- | --- | --- | --- | --- | --- | --- |
| COc1ccc2c3c1O[C@H]1C[C@@H](OC(=O)CCCCCCCCC(=O)O[C@H]4C=C[C@@]56CCN(C)Cc7ccc(OC)c(c75)O[C@H]6C4)C=C[C@@]31CCN(C)C2 | ABCB1 | doxorubicin accumulation, inhibitor, flow cytometry | MCF7/DX1 | together with: 3 µM doxorubicin |  | IC50 | 0.5 ± 0.1 µM |
| Cc1ncccc1NC(=O)c1ccc2c(c1)CC[C@@H]1C[C@@](O)(C(F)(F)F)CC[C@@]21Cc1ccccc1 | CYP3A4/5, human | time-dependent inhibitor, refers to: 1'-hydroxymidazolam | pooled human liver microsomes | together with: midazolam 23 µM |  | kinact | ~0.00367 s⁻¹ |
| Clc1ccc(-c2c(Cl)c(Cl)c(Cl)c(Cl)c2Cl)cc1Cl | NR1I2 (Homo sapiens, UniProt O75469) | reporter gene, agonist, luciferase | COS-7 | 24 h | reference: DMSO | fold induction | 4.5 ± 0.5 fold |
| calcein AM | ABCB1 | ATPase activity, substrate | membranes | together with: ATP 1 mM |  | Vmax | 46 ± 2 nmol Pi/min/mg protein |
| CC[N+]1=C(C=CC=CC=C2N(CCCCCC(=O)NCCN3C(=O)CC(SC[C@@H](NC(=O)[C@@H](CCCNC(=N)N)NC(=O)[C@@H](CCCNC(=N)N)NC(=O)[C@@H](CCCNC(=N)N)NC(=O)[C@@H](CCCNC(=N)N)NC(=O)[C@@H](CCCNC(=N)N)NC(=O)[C@@H](CCCNC(=N)N)NC(=O)[C@@H](CCCNC(=N)N)NC(=O)[C@@H](CCCNC(=N)N)NC(=O)[C@@H](CCCNC(=N)N)NC(=O)[C@H](CC(C)C)NC(=O)[C@H](CCCCN)NC(=O)[C@H](CC(C)C)NC(=O)[C@H](CCC(N)=O)NC(=O)[C@H](CC(C)C)NC(=O)[C@H](CCCNC(=N)N)NC(=O)CCCCCNC(=O)[C@@H](CCC(=O)O)NC(=O)[C@@H](CCC(=O)O)NC(=O)[C@@H](CCC(=O)O)NC(=O)[C@@H](CCC(=O)O)NC(=O)[C@@H](CCC(=O)O)NC(=O)[C@@H](CCC(=O)O)NC(=O)[C@@H](CCC(=O)O)NC(=O)[C@@H](CCC(=O)O)NC(=O)[C@H](N)CCC(=O)O)C(N)=O)C3=O)c3ccc(S(=O)(=O)O)cc3C2(C)C)C(C)(C)c2cc(S(=O)(=O)[O-])ccc21 (some centres unmarked) | Prostate-specific antigen (Homo sapiens, UniProt P07288) | substrate |  | 5 µM |  | cleavage | < 3% |
| Oc1ccc(/C=C/c2cc(O)cc(O)c2)cc1 | UGT1A10 human recombinant | substrate, refers to: 3-glucuronide |  | pH 7.4 |  | Km | 489 ± 72 µM |
| Clc1ccc(-c2ccc(Cl)c(Cl)c2Cl)cc1 | PXR (polar bear) | reporter gene, agonist, luciferase | COS-7 | 24 h | reference: DMSO | fold induction | 0.8 ± 0.1 fold |
| CC(=O)CC(c1ccccc1)c1c(O)c2cccc(O)c2oc1=O (centres unmarked) | CYP2C9 | enzyme activity, inhibitor |  | pH 7.4 |  | Ki | 21 µM |
| CC[C@H](C)[C@H](NC(=O)[C@H](CCCCN)NC(=O)[C@H](CCC(=O)O)NC(=O)[C@H](CCCCN)NC(=O)[C@H](CO)NC(=O)[C@H](CCCCN)NC(=O)[C@H](CCCNC(=N)N)NC(=O)[C@H](Cc1ccccc1)NC(=O)[C@H](Cc1ccccc1)NC(=O)[C@H](CC(=O)O)NC(=O)CNC(=O)[C@H](CC(C)C)NC(=O)[C@@H](N)CC(C)C)C(=O)NCC(=O)N[C@@H](CCCCN)C(=O)N[C@@H](CCC(=O)O)C(=O)N[C@@H](Cc1ccccc1)C(=O)N[C@@H](CCCCN)C(=O)N[C@@H](CCCNC(=N)N)C(=O)N[C@H](C(=O)N[C@H](C(=O)N[C@@H](CCC(N)=O)C(=O)N[C@@H](CCCNC(=N)N)C(=O)N[C@H](C(=O)N[C@@H](CCCCN)C(=O)N[C@@H](CC(=O)O)C(=O)N[C@@H](Cc1ccccc1)C(=O)N[C@@H](CC(C)C)C(=O)N[C@@H](CCCNC(=N)N)C(=O)N[C@@H](CC(N)=O)C(=O)N[C@@H](CC(C)C)C(=O)N[C@H](C(=O)N1CCC[C@H]1C(=O)N[C@@H](CCCNC(=N)N)C(=O)N[C@H](C(=O)N[C@@H](CCC(=O)O)C(=O)N[C@@H](CO)C(=O)O)[C@@H](C)O)C(C)C)[C@@H](C)CC)C(C)C)[C@@H](C)CC | Escherichia coli OmpT | substrate | E. coli BL21 expressing ompT, PBS | 2 µg/µL, room temperature |  | time to cleavage | ≤ 15 min |
| CC(C)c1nc(N(C)S(C)(=O)=O)nc(-c2ccc(F)cc2)c1/C=C/[C@@H](O)C[C@@H](O)CC(=O)O | OATP1B1/1B3 |  | human, plasma | oral, 10 mg single dose, together with: dabrafenib at dosing initiation | reference: compound alone | AUC(0-inf) increase | 22% |
| Clc1ccc(Cl)c(-c2c(Cl)c(Cl)cc(Cl)c2Cl)c1 | PXR (polar bear) | reporter gene, agonist, luciferase | COS-7 | 24 h | reference: DMSO | fold induction | 1.5 ± 0.2 fold |
| C#CCOCCc1cccc2ccccc12 | Cytochrome P450 2A13 (Homo sapiens, UniProt Q16696) | binding, absorbance |  | pH 7.4 |  | Kd | 1.1 µM |
| CSc1nc2cc(Cl)c(Oc3cccc(Cl)c3Cl)cc2[nH]1 | CYP2C9 | inhibitor | human liver microsomes | 2 µM, pH 7.4, together with: diclofenac |  | inhibition | 74.4% |
| Nc1ccncc1[18F] | Cytochrome P450 2E1 (Cyp2e1, Mus musculus, UniProt Q05421) |  | awake mice, brain | intravenous, 35 min, sesame oil vehicle pretreatment |  | parent fraction | 71.3 ± 5.2% |
| Clc1ccc(-c2ccc(Cl)cc2Cl)c(Cl)c1 | PXR (polar bear) | reporter gene, agonist, luciferase | COS-7 | 24 h | reference: DMSO | fold induction | 1.4 ± 0.4 fold |
| C#CCOCc1ccccc1-c1ccccc1 | Cytochrome P450 2A6 (CYP2A6, Homo sapiens, UniProt P11509) | binding, absorbance |  | pH 7.4 |  | Kd | 17 µM |
| CN[C@@](C)(C[18F])C(=O)O |  |  | SCID mouse U87 xenograft, kidney | 120 min, post injection |  | tissue uptake | 3.3 ± 0.4 %ID/g |

Excerpt of the above:
| Molecule | target or system | assay | test system | setting | how to read | endpoint | value |
| --- | --- | --- | --- | --- | --- | --- | --- |
| CC(=O)CC(c1ccccc1)c1c(O)c2cccc(O)c2oc1=O (centres unmarked) | CYP2C9 | enzyme activity, inhibitor |  | pH 7.4 |  | Ki | 21 µM |
